# Published values collected from several papers.
# Numbered parts are unrelated; each lists some results of a single study. Changes are numbered by the printed parent chain.

# Block 1
# Target: ABI1, truncated, D143A, DHFR fusion (Arabidopsis thaliana)
# Technique: DHFR PCA, deep sequencing
# Medium: yeast
# Setting: methotrexate growth selection, single substitutions
# With: (+)-ABA 1.4 µM
# Reference: wild-type fitted maximum
# Direction: higher = stronger binding
# Parent: PYL1, truncated, DHFR fusion (Arabidopsis thaliana); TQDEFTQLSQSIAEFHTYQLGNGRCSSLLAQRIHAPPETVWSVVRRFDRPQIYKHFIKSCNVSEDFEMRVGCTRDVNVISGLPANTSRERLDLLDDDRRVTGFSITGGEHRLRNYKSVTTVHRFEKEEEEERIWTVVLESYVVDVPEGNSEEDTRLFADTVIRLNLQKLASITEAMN
Variant,relative binding score [%]
P50H,-28.7
E130C,52.6
G108I,-8.55
V161L,60.5
G148E,1.05
N165K,9.32
T154M,7.41
Q10P,60.3
K54E,-3.21
T39C,42.7
G23V,19.3
G21C,37.7
W134R,15.9
A13F,11.5
G107N,1.42
H110Q,21.6
N165Q,10.7
P37W,-7.82
D75K,56.1
V100T,4.66
Y53Q,-5.15
P37V,36.3
T86S,69.9
R69K,79.8
H16M,10.8

# Block 2
# Target: RNA binding protein fox-1 homolog 2, RRM domain, GST-SBP tag (RBFOX2, Homo sapiens, UniProt O43251-10, residues 100-194)
# Technique: RNA Bind-n-Seq
# Molecule type: RNA
# Medium: in vitro
# Concentration: 365 nM
# Setting: natural RNA segment, single round, ends assumed
# Reference: no-protein control
# Direction: higher = stronger binding
# Shared flanks, not repeated: GGGAGUUCUACAGUCCGACGAUC … UGGAAUUCUCGGGUGCCAA
# Residues (chain): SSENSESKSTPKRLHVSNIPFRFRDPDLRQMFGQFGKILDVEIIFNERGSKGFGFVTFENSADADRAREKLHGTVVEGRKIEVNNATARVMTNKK
Strand,RBNS enrichment (R)
UUAAGCCCAGAGAUCCUGCUUGAGCCCUGGACUCAUCUUGGGAAGGGCCAUGGGAGGUCCUGGCUAGAGUUCUGCCCAACCUUGACCAACCCCAGCAAUUUUUCCAAAAG,0.294
GUUACCCUUGGAAGAUAAAGCUGGGUCUUCAGGAACUCAGUGUCUGGGAGGAAAGCAUGGCCCAGCAUUCAGCAUGUGUUCCUUUCUGCAGUGGUUCUUAUCACCACCUC,8.2
UUAAAAAAAUAAAUUAUCCUGCUUUAGUUAGUGUGUUAAAAGUAGACGAUGUUCUAAUAUAACACUGAAGUGCUUCAUUGUAUCCCAACAGUUUACCUUCAAGUAAUAUU,1.02
CUCUGCUGUUUGGUCUUCACUCUCUCUUCCUUGGAGGGAAAGCUACAAGAGACUCUCUUUUUAAUUCCUUGAGUACCCUUUGCCCCACUUCCAAGAGAGGACAGCAAGUC,0.302
UUAAGGGAUUGGCUCGCUGAGUUCUAAGCUCUAAAUGGGUCAACUCCUUUGUUUUCCGCCUAGCGACAAGGGAUUUGCUCGCACGGCAUUGGCUCCAUCCCCUAGUCGCU,1.82
UUUGUGUGUUGUAUGGUCAAUAACAUUUUUCAUUACUGAUGGUGUCAUUCACCCAUUAGGUAAACAUUCCCUUUUAAAUGUUUGUUUGUUUUUUGAGACAGGAUCUCACU,0.484
GUACUUCCACAAAGCAUCCCUUGGUUUUAUUCCAGUUUGUUGCUUUACGUAUUUGUAAGUAUUAAACACCAAUUACUAAAUUAUCUGUAAUUCAGAUUUGUCAUUUGGAG,0.315
GAUAACUUGGGAUUUCUUGAUAGUCCUUCACCCCUGAAACCCCGUAUUUACUUAACAAGAUUUAGCUCUUAGUUCUUCAAGUAAAAUUAAAGUCUCUUGUGUAAGAGCCA,0.428

# Block 3
# Target: Ras GTPase-activating protein-binding protein 1, full length (G3BP1, Homo sapiens, UniProt Q13283)
# Chain of UniProt Q13283 (whole entry, looked up): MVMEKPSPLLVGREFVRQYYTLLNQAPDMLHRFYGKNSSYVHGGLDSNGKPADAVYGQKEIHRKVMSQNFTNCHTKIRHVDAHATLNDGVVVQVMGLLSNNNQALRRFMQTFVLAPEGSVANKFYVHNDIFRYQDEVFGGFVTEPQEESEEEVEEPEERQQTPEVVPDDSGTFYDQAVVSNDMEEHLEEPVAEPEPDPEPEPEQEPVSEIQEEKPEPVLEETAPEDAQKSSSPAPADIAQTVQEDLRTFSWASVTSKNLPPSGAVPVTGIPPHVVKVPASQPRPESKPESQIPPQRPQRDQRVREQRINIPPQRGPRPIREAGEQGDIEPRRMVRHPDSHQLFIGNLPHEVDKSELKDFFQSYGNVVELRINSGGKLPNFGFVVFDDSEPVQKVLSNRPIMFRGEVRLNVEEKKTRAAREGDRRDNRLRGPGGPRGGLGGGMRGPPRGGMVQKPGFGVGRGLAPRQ
# Technique: RNA Bind-n-Seq
# Molecule type: RNA
# Medium: in vitro
# Concentration: 200 nM
# Setting: whole 134-nt RNA, ends assumed
# With: 150 mM LiCl
# Reference: input library
# Direction: higher = stronger binding
# Library: 7-deaza-guanosine replaces G
# Shared flanks, not repeated: GGGAGUUCUACAGUCCGACGAUC … UGGAAUUCUCGGGUGUCAAGG
Strand,log2 enrichment
CUCAAGUCCUGUGCUACACAUCGUAUGUACCGAAUCGGGAGGGGAGGGGAGGGAAAGUAUUAUGUUACGCCGUUCGGAUCUGCACUUCCA,0.0577
UAACUUUAGAGGAGGAUCUGAUGGAUAUGGCAGUGGACGUGGAUUUGGGGAUGGCUAUAAUGGGUAUGAAGGAGGACCUGGAGGUGGCAA,-0.209
AGUCCUGUGCUACACAUCGUAUGUACCGAAUCAAAUUUAAAUUUUUUUAAACCCAAAAAAGUAUUAUGUUACGCCGUUCGGAUCUGCACU,-0.916
UGGCCCUGGUGGCAUGUGGGGAGGAAGAGGUGGCCUCAUGGAUCGUGGUGGUCCCGGUGGAAUGUUCAGAGGUGGCCGUGGUGGAGACAG,0.5
UCCUGUGCUACACAUCGUAUGUACCGAAUCAAACCCCCAAACCCCCAAACCCCCCCAAAAAAGUAUUAUGUUACGCCGUUCGGAUCUGCA,0.0501
UUCCCCUGGAGGGCGCCUCCAUCCUUGGAGGCCUAGUGCCGUCGGAGAGAGAGCGGGAGCCGCGGACAGAGACGCGUGCGCAAUUCGGAG,-0.471
ACCAUGCAGGUGGGCAUCUUUGGGAAGUGGGGCAAGGGGGGGAUAGGGAGGAAAGUAACACUUUGGGAACAGGUGGUCCCAGGUCGUUUC,0.00375
UCAAGUCCUGUGCUACACAUCGUAUGUACCGAAUCGGGAGGGAGGGUUUUUGGGAAAGUAUUAUGUUACGCCGUUCGGAUCUGCACUUCC,0.356

# Block 4
# Target: Interferon regulatory factor 5, full length, phosphomimetic (IRF5, Homo sapiens, UniProt Q13568-2, residues 1-514, K96S/S451D/S453D/S456D/S462D)
# Technique: protein-binding microarray
# Molecule type: double-stranded DNA, one strand shown
# Medium: in vitro
# Concentration: 250 nM
# Setting: 60-bp whole probe
# With: salmon DNA 0.4 mg/ml
# Reference: random background probes
# Direction: higher = stronger binding
# Shared flanks, not repeated: GCCTAGCAC … GTCTTGATTCGCTTGACGCTGCTG
Strand,log fluorescence
TTAGGTTTCGGTATCTGTTAGTGCTAG,10.5 z-score
TAATGGATATATATCATTTAGTGCTAG,0.798 z-score
TCACTTTTGCTTGTTCTTACTGTGCTA,2.52 z-score
TTAGGTCTCGGTCTCGATTAGTGCTAG,0.755 z-score
GACGGTTTCGGGCTGGGGACGTGCTAG,4.96 z-score
GACGAACTGAGTCACGAGACGTGCTAG,-0.268 z-score
TTAGGGCTGCTTTTCCTTTAGTGCTAG,-0.0249 z-score
GACGGTCTTCTTTTCCTGACGTGCTAG,0.311 z-score
TTAGATTTCAGTATCGAGTAGTGCTAG,5.19 z-score
GACGATTTCATTATCGAGACGTGCTAG,3.23 z-score
ATAACACTCTTCTTTTGCTAAGTGCTA,1.2 z-score
TCATTCCTGATCTCTGGTACTGTGCTA,0.424 z-score
GACGGACTGGGTTTCGCGACGTGCTAG,-0.24 z-score
GACGGTATCAGACTGGGGACGTGCTAG,0.017 z-score
TTAGAACTGGGGACTGGGTTAGTGCTA,-0.467 z-score
TTAGGACTGGGTCTCGGCTAGTGCTAG,-0.55 z-score

# For quick reference, copied from above (block 2):
Strand,RBNS enrichment (R)
UUAAGGGAUUGGCUCGCUGAGUUCUAAGCUCUAAAUGGGUCAACUCCUUUGUUUUCCGCCUAGCGACAAGGGAUUUGCUCGCACGGCAUUGGCUCCAUCCCCUAGUCGCU,1.82
UUAAGCCCAGAGAUCCUGCUUGAGCCCUGGACUCAUCUUGGGAAGGGCCAUGGGAGGUCCUGGCUAGAGUUCUGCCCAACCUUGACCAACCCCAGCAAUUUUUCCAAAAG,0.294
GUUACCCUUGGAAGAUAAAGCUGGGUCUUCAGGAACUCAGUGUCUGGGAGGAAAGCAUGGCCCAGCAUUCAGCAUGUGUUCCUUUCUGCAGUGGUUCUUAUCACCACCUC,8.2
GAUAACUUGGGAUUUCUUGAUAGUCCUUCACCCCUGAAACCCCGUAUUUACUUAACAAGAUUUAGCUCUUAGUUCUUCAAGUAAAAUUAAAGUCUCUUGUGUAAGAGCCA,0.428
GUACUUCCACAAAGCAUCCCUUGGUUUUAUUCCAGUUUGUUGCUUUACGUAUUUGUAAGUAUUAAACACCAAUUACUAAAUUAUCUGUAAUUCAGAUUUGUCAUUUGGAG,0.315
CUCUGCUGUUUGGUCUUCACUCUCUCUUCCUUGGAGGGAAAGCUACAAGAGACUCUCUUUUUAAUUCCUUGAGUACCCUUUGCCCCACUUCCAAGAGAGGACAGCAAGUC,0.302
